Experimental data gathered from unrelated publications.
Each line is one published result; not all experiments were run side by side. ± gives the spread as reported.

O=C1c2ccncc2C(=O)c2c1[nH]c1ccccc21  volume of distribution (Sprague-Dawley rat male, plasma; intravenous, 1 mg/kg): 10.2 ± 4.3 L
Cc1cc(C#N)cc(C)c1Oc1nc(Nc2ccc(C#N)cc2)nc(N)c1Br  volume of distribution (Sprague-Dawley rat, plasma; intravenous, 2 mg/kg): 8.85 ± 1.17 L/kg
CC[C@@](N)(c1cnc(C(F)(F)F)c(Cl)c1)c1c2ncn(C3CC3)c(=O)c2nn1C  volume of distribution at steady state (Sprague-Dawley rat, male, plasma; intravenous, 1 mg/kg): 0.92 ± 0.0516 L/kg
COc1cc2c3c(n(CCCN4CCOCC4)c(=O)c2cc1OC)-c1cc2c(cc1C3=O)OCO2  volume of distribution (Fischer 344 rats, male; intravenous bolus, 12 mg/m^2): 156 L/m²
N=C(N)NCCNC(=O)C1(Nc2ccccc2)CCN(Cc2ccccc2)CC1  volume of distribution (female Sprague-Dawley rats, plasma; intravenous, 2.5 mg/kg): 0.6 ± 0.2 L
CN1CC(Oc2cnc(C#N)cc2-c2ccn3nc(NC(=O)C4CC4)cc3c2)C1  volume of distribution (rat, Sprague-Dawley, male, plasma; intravenous, 1 mg/kg): 4 L/kg
O=C1C[C@@H](c2ccc(O)cc2)Oc2cc(O)cc(O)c21  volume of distribution (Sprague-Dawley rat, plasma; intravenous bolus, 1 mg/kg): 1.01 ± 0.067 L
CCn1cc(C)c2c([C@H](O)c3ccc(C(F)(F)F)nc3)n(C)nc2c1=O  volume of distribution at steady state (Sprague-Dawley rat, male, plasma; intravenous, 1 mg/kg): 2.9 ± 0.222 L/kg

Repeated from above:
N=C(N)NCCNC(=O)C1(Nc2ccccc2)CCN(Cc2ccccc2)CC1  volume of distribution (female Sprague-Dawley rats, plasma; intravenous, 2.5 mg/kg): 0.6 ± 0.2 L
